Measured values collected from several papers.
Compare with care: the assays were run in different laboratories.
Organism: Mycolicibacterium smegmatis

CC1CCC(C(C)C)C(OC(=O)Cn2c[n+](CC(=O)OC3CC(C)CCC3C(C)C)c3ccccc32)C1 (stereo not drawn)  MIC (microbial growth): 5 µM
COc1ccc(-c2c[nH]c(N)n2)cc1  IC50 (biofilm formation, crystal violet): 30.1 µM
CC1CCC(C(C)C)C(OC(=O)Cn2c(-c3ccc(Br)cc3)[n+](C)c3ccccc32)C1 (stereo not drawn)  MIC (microbial growth): 25 µM
EVEPSDTIENVKAKIQ  MIC (peptide, mc^2155, 7H9 medium; overnight, 37 °C): 50 µM
NC[C@H]1O[C@H](O[C@H]2[C@H](O)[C@@H](O[C@H]3O[C@H](CO)[C@@H](O)[C@H](N)[C@H]3O)[C@H](N)C[C@@H]2N)[C@H](N)C[C@@H]1O  MIC (wild type): 0.12 µg/mL
CCCCCc1ccc(-c2c[nH]c(N)n2)cc1  IC50 (biofilm formation, crystal violet): 13.6 µM
NCC[C@H](O)C(=O)N[C@@H]1C[C@H](N)[C@@H](O[C@H]2O[C@H](CN)[C@@H](O)[C@H](O)[C@H]2O)[C@H](O)[C@H]1O[C@H]1O[C@H](CO)[C@@H](O)[C@H](N)[C@H]1O  MIC (wild type): 0.06 µg/mL
CN(C)C(=N)N=C(N)N  MIC (microbial growth; 700084): > 512 µM
CCc1ccc(-c2c[nH]c(N)n2)cc1  IC50 (biofilm formation, crystal violet): 29 µM

Excerpt of the above:
CC1CCC(C(C)C)C(OC(=O)Cn2c(-c3ccc(Br)cc3)[n+](C)c3ccccc32)C1 (stereo not drawn)  MIC (microbial growth): 25 µM
